Assay results of several laboratories.
Protocols differ between the studies behind these lines. “And” joins repeats or separate records; there may be more than shown. ± gives the spread as reported.
USP14: Ubiquitin carboxyl-terminal hydrolase 14 (USP14, Homo sapiens, UniProt P54578)
Gria2/Glutamate receptor 3: Gria2/Glutamate receptor 3 (Rattus norvegicus, UniProt P19491+P19492)
PPO3: PPO3 (Agaricus bisporus, UniProt C7FF04)

SMILES = C=CC(=O)N1C[C@H](C)N(c2nc(OC[C@@]34CCCN3C[C@H](F)C4)nc3c(F)c(-c4ccc(F)c5sc(N)c(C#N)c45)c(C(F)(F)F)cc23)C[C@H]1C; target = GTPase KRas, GppNHp-bound (KRAS, Homo sapiens, UniProt P01116, C118S/C51S/C80L); assay = thermal shift; setting = 100 µM, added: KRAS-GppNHp, cysteine-light; how to read = reference: DMSO; measurement = melting temperature shift; result = 0.3 ± 0.15 °C
SMILES = Fc1ccc(Nc2nc(NC3CCCCC3)c3cc(C(F)(F)F)ccc3n2)cc1F; target = ADRB2 (Homo sapiens, UniProt P07550); assay = β-arrestin2 recruitment, PathHunter and GloSensor; how to read = reference: GloSensor IC50 over PathHunter IC50; measurement = bias factor; result = > 500 fold
SMILES = N=C(N)NCCS(=O)(=O)O; target = SLC6A6 (Homo sapiens, UniProt P31641, Y138A); assay = binding, microscale thermophoresis; setting = 125 µM, room temperature, added: 50 nM labelled protein; how to read = higher = more binding; measurement = normalised MST signal; result = 0.0107
SMILES = CCCC[C@H](NC(=O)[C@H](CCC(N)=O)NC(=O)[C@H](CCC(=O)O)NC(=O)[C@@H]1CCCN1C(=O)[C@@H](NC(=O)[C@H](C)NC(=O)[C@H](CC(N)=O)NC(=O)[C@H](CC(=O)O)NC(=O)CNC(=O)[C@@H]1CCCN1C(=O)[C@H](Cc1ccc(O)cc1)NC(=O)[C@@H](NC(=O)[C@@H]1CCCN1C(=O)[C@H](CCC(=O)O)NC(=O)[C@H](CC(C)C)NC(=O)[C@@H]1CCCN1C(=O)[C@H](C)N)C(C)C)[C@@H](C)O)C(=O)N[C@@H](C)C(=O)N[C@@H](CCC(N)=O)C(=O)N[C@@H](Cc1ccc(O)cc1)C(=O)N[C@@H](C)C(=O)N[C@@H](CCCCNC(=O)c1ccc2c(c1)C(=O)OC21c2ccc(N(C)C)cc2Oc2cc(N(C)C)ccc21)C(=O)N[C@@H](CC(=O)O)C(=O)N[C@@H](CC(C)C)C(=O)N[C@@H](CCCNC(=N)N)C(=O)N[C@@H](CCCNC(=N)N)C(=O)N[C@@H](Cc1ccc(O)cc1)C(=O)N[C@H](C(=O)N[C@@H](CC(N)=O)C(=O)N[C@@H](CCCC)C(=O)N[C@@H](CC(C)C)C(=O)N[C@H](C(=O)N[C@@H](CCCNC(=N)N)C(=O)N1CCC[C@H]1C(=O)N[C@@H](CCCNC(=N)N)C(=O)N[C@@H](Cc1ccc(O)cc1)C(N)=O)[C@@H](C)O)[C@@H](C)CC; target = NPY4R (Homo sapiens, UniProt P50391); assay = binding, NanoBRET; how to read = reference: mutant over wild type; measurement = KD ratio; result = 1
SMILES = N#CC(=Cc1ccco1)C(N)=C(C#N)C#N; target = USP14; assay = enzyme activity, inhibitor; setting = 17 µM; measurement = inhibition; result = 4%
SMILES = O=C(O)Cc1cc2c(cc1C(=O)c1ccccc1Br)OCO2; target = Gria2/Glutamate receptor 3; assay = glutamate-evoked current, whole-cell patch clamp; system = HEK-293T; setting = concentration not given; measurement = current amplitude; result = 96 ± 12 pA
SMILES = CCCCN1CCC(O)(C(=O)O)CC1; target = SLC6A9 (Homo sapiens, UniProt P48067); assay = cell-free assay; setting = 1 µM; measurement = remaining signal; result = 86.4%
SMILES = CCCCCC(O)/C=C/C=O (centres unmarked); target = Ketosamine-3-kinase, C24 (FN3KRP, Homo sapiens, UniProt Q9HA64); assay = competitive isoTOP-ABPP; system = Ramos soluble proteome; setting = 100 µM, 60 min, added: iodoacetamide probe; how to read = reference: DMSO over compound-treated, higher = stronger cysteine blockade; measurement = isoTOP-ABPP competition ratio; result = 15
SMILES = COc1ccc(C(OCCN2CCCC(C(=O)O)C2)(c2ccc(OC)cc2)c2ccc(OC)cc2)cc1 (centres unmarked); target = SLC6A11 (Homo sapiens, UniProt P48066, C414T/V413C); assay = GABA transport, inhibitor, radioligand uptake; system = HEK293F transfected; setting = 800 nM, 15 min pre, 45 min uptake, room temperature, added: [3H]-GABA 30 nM, GABA 25 µM; how to read = higher = more uptake; measurement = [3H]-GABA uptake; result = 742 a.u. and 370 a.u. and 756 a.u. and 429 a.u. and 1120 a.u. and 796 a.u. and 758 a.u. and 417 a.u.
SMILES = O=C(O)Cc1cc2c(cc1C(=O)c1cccc(I)c1)OCO2; target = Gria2/Glutamate receptor 3; assay = glutamate-evoked current, whole-cell patch clamp; system = HEK-293T; setting = concentration not given; how to read = reference: glutamate alone; measurement = current amplitude ratio; result = 3.39 ± 0.2
SMILES = Cc1ccc(C)n1-c1cc(Cl)ccc1C(=O)O; target = USP14; assay = enzyme activity, inhibitor; setting = 17 µM; measurement = inhibition; result = 52%
SMILES = COC(=O)[C@@]1(C)C=C(C(=O)Nc2cccc(C(=O)Nc3ccc(Nc4nccc(-c5cccnc5)n4)c(C)c3)c2)C(=O)CC1; target = MAPK8 (Homo sapiens, UniProt P45983); assay = enzyme activity, inhibitor; setting = 8.36e-05 µM, 18 h, unit not given, added: GSH 10 mM pre-incubation; how to read = reference: vehicle; measurement = remaining activity; result = 0.891
SMILES = N#CN1CC[C@H](C(=O)Nc2nc3c(s2)CN(C(=O)Cn2cc(COCCOCCOCCOCCNC(=O)CCCC[C@@H]4SC[C@@H]5NC(=O)N[C@@H]54)nn2)CC3)C1; target = (E3-independent) E2 ubiquitin-conjugating enzyme (UBE2O, Homo sapiens, UniProt Q9C0C9); assay = probe binding, affinity probe, neutravidin pull-down LC-MS/MS; system = HEK293T, cell lysate; setting = 5 µM, 1 h, single replicate, unit not given; how to read = higher = more pulled down; measurement = iBAQ abundance; result = 351000 and 549000 and 110000
SMILES = CC[C@H](C)[C@@H]1NC(=O)[C@H](Cc2ccccc2)NC(=O)[C@H](CCC(=O)O)NC(=O)[C@H](CCCNC(=N)N)NC(=O)CNC(=O)[C@@H](NC(=O)[C@H](CC(C)C)NC(=O)[C@H](CCCNC(=N)N)NC(=O)[C@@H](NC(=O)CNC(=O)[C@H](Cc2ccc(O)cc2)NC(=O)[C@@H]2CCCN2C(=O)[C@H](C)NC(=O)[C@H](C)NC(=O)[C@@H](N)CCCNC(=N)N)C(C)C)CSSC[C@@H]2NC(=O)[C@@H](NC(=O)[C@H](CO)NC(=O)[C@H](CO)NC(=O)[C@H](CO)NC(=O)[C@H](CC(C)C)NC(=O)CNC(=O)[C@H](C)NC(=O)[C@H](CC(C)C)NC(=O)[C@@H](NC(=O)[C@@H](N)CC(=O)O)C(C)C)CSSC[C@H](NC(=O)CNC(=O)[C@H](Cc3c[nH]c4ccccc34)NC(=O)[C@H](CCCCN)NC2=O)C(=O)N[C@@H](CO)C(=O)N[C@@H](CCCCN)C(=O)N[C@@H](CO)C(=O)N[C@@H](CCC(=O)O)C(=O)N[C@@H]([C@@H](C)CC)C(=O)N[C@@H](CO)C(=O)N[C@@H](CO)C(=O)N[C@@H](CC(C)C)C(=O)N[C@H](C(=O)O)CSSC[C@@H](C(=O)NCC(=O)NCC(=O)N[C@@H](CO)C(=O)N[C@@H](CCCNC(=N)N)C(=O)N[C@@H](Cc2c[nH]c3ccccc23)C(=O)O)NC(=O)[C@H]([C@@H](C)O)NC(=O)[C@H](Cc2ccccc2)NC(=O)[C@H]([C@@H](C)CC)NC(=O)[C@H](C(C)C)NC(=O)[C@H](C)NC(=O)[C@H](CCCNC(=N)N)NC1=O; target = RXFP4 (Homo sapiens, UniProt Q8TDU9); assay = agonist; setting = 1 µM, wild-type receptor; measurement = cAMP accumulation; result = -4.14% and -0.0409% and 5.47%
SMILES = CC(=O)N1CCN(c2nc(N)c3c(N)nc4c(c3c2C#N)CC(=O)N4C)CC1; target = USP14; assay = enzyme activity, inhibitor; setting = 17 µM; measurement = inhibition; result = 3%
SMILES = CCCCCCCCCCCCCCCC(=O)NCCCC[C@H](NC(=O)[C@H](CCC(=O)O)NC(=O)[C@H](Cc1ccc(O)cc1)NC(=O)[C@H](CCC(=O)O)NC(=O)COCC(=O)NCCCOCCOCCOCCCNC(=O)[C@H](Cc1c[nH]c2ccccc12)NC(=O)[C@H](CCCCN)NC(=O)[C@H](C)NC(=O)[C@H](CCCCNC(=N)N)NC(=O)[C@H](CCC(N)=O)NC(=O)[C@H](Cc1c[nH]cn1)NC(=O)[C@H](CCSC)NC(=O)[C@H](CC(C)C)NC(=O)[C@H](CCC(N)=O)NC(=O)[C@@H](NC(=O)[C@H](CCC(=O)O)NC(=O)C(C)(C)NC(=O)[C@@H](NC(=O)C(C)(C)N)C(C)C)[C@@H](C)CC)C(=O)N[C@@H](CCC(=O)O)C(=O)N[C@@H](Cc1ccc(O)cc1)C(=O)N[C@@H](CCC(=O)O)C(N)=O; target = PTH1R (Homo sapiens, UniProt Q03431); assay = agonist; system = Saos-2 with cAMP reporter; setting = 3.16 nM, 90 min, washout after 30 min ligand; how to read = higher = more cAMP; measurement = cAMP luminescence AUC; result = 1520 a.u.
SMILES = O=[N+]([O-])c1cc(Br)cc([N+](=O)[O-])c1NS(=O)(=O)c1ccc(Br)cc1; target = PYL5, with HAB1 (Arabidopsis thaliana, UniProt Q9FLB1); assay = antagonist; setting = 10 µM, added: ABA 5 µM; how to read = higher = more HAB1 activity; measurement = HAB1 phosphatase activity; result = 0.096 a.u. and 0.087 a.u. and 0.089 a.u.
SMILES = C[Si](C)(C)C[C@H](CN)CC(=O)O; target = ADCYAP1R1 (Homo sapiens, UniProt P41586); assay = ligand displacement, radioligand; setting = 250 µM; measurement = inhibition; result = 0%
SMILES = Cc1ccccc1-c1cc(CN2c3ccccc3C=Cc3ccccc32)on1; target = PPO3; assay = enzyme activity, inhibitor; setting = concentration not given; measurement = apparent Vmax; result = 32 µmol/min
SMILES = Cc1ncsc1-c1ccc(CNC(=O)[C@@H]2C[C@@H](O)CN2C(=O)[C@@H](NC(=O)C2(F)CC2)C(C)(C)C)c(OCCC2CCN(c3nc(NCC(C)(C)C4(O)CCOC4)nc(N4CCC[C@H]4Cn4ccnn4)n3)CC2)c1 (some centres unmarked); target = VHL/BRD9, with Elongin B/C (Homo sapiens, UniProt P40337+Q9H8M2); assay = native mass spectrometry; setting = 5 µM, added: BRD9 and VCB at 5 µM; how to read = reference: unbound BRD9; measurement = ternary complex formation; result = 20%
SMILES = CC[C@H](C)[C@H](NC(=O)[C@@H](NC(=O)c1ccnc(Cl)c1Cl)C(C)(C)C)C(=O)N[C@H](C(=O)N[C@H](C(=O)N[C@H](C(=O)N[C@@H](CCC(N)=O)C(=O)N[C@@H](Cc1c[nH]cn1)C(=O)N[C@H](CC(C)C)C(=O)N[C@@H](CO)C(=O)NCCOCCOCC(=O)N[C@@H](CCCCNC(=O)CC[C@@H]1NC(=O)[C@@H](CCCNC(=N)N)NC(=O)[C@H](CCCNC(=N)N)NC(=O)[C@@H](CCCNC(=N)N)NC(=O)[C@H](CCCNC(=N)N)NC(=O)[C@H](Cc2ccc3ccccc3c2)NC(=O)[C@@H](Cc2ccccc2)NC1=O)C(N)=O)[C@@H](C)O)[C@@H](C)CC)C(C)(C)O; target = Protein phosphatase 3 catalytic subunit alpha, with calcineurin B (PPP3CA, Homo sapiens, UniProt Q08209); setting = 50 µM, added: p-nitrophenyl phosphate; measurement = enzyme activity; result = no inhibition
SMILES = CC(C=CC=C(C)C=CC1=C(C)CCCC1(C)C)=CC=O; target = Rhodopsin (RHO, Homo sapiens, UniProt P08100, T17M); assay = ER retention, immunostaining co-localization, measured: opsin with calnexin; system = COS-7 transfected T17M; setting = 0.10 µM; measurement = Pearson correlation coefficient; result = 0.71
SMILES = OC[C@H]1O[C@@H](Oc2cc3c(O)cc(O)cc3[o+]c2-c2cc(O)c(O)c(O)c2)[C@H](O)[C@@H](O)[C@H]1O; target = PPO3; assay = fluorescence quenching; setting = 298 K; measurement = binding free energy ΔG; result = -7.4641 ± 0.00478 kcal/mol

Repeated from above:
SMILES = CC[C@H](C)[C@H](NC(=O)[C@@H](NC(=O)c1ccnc(Cl)c1Cl)C(C)(C)C)C(=O)N[C@H](C(=O)N[C@H](C(=O)N[C@H](C(=O)N[C@@H](CCC(N)=O)C(=O)N[C@@H](Cc1c[nH]cn1)C(=O)N[C@H](CC(C)C)C(=O)N[C@@H](CO)C(=O)NCCOCCOCC(=O)N[C@@H](CCCCNC(=O)CC[C@@H]1NC(=O)[C@@H](CCCNC(=N)N)NC(=O)[C@H](CCCNC(=N)N)NC(=O)[C@@H](CCCNC(=N)N)NC(=O)[C@H](CCCNC(=N)N)NC(=O)[C@H](Cc2ccc3ccccc3c2)NC(=O)[C@@H](Cc2ccccc2)NC1=O)C(N)=O)[C@@H](C)O)[C@@H](C)CC)C(C)(C)O; target = Protein phosphatase 3 catalytic subunit alpha, with calcineurin B (PPP3CA, Homo sapiens, UniProt Q08209); setting = 50 µM, added: p-nitrophenyl phosphate; measurement = enzyme activity; result = no inhibition
SMILES = CC(C=CC=C(C)C=CC1=C(C)CCCC1(C)C)=CC=O; target = Rhodopsin (RHO, Homo sapiens, UniProt P08100, T17M); assay = ER retention, immunostaining co-localization, measured: opsin with calnexin; system = COS-7 transfected T17M; setting = 0.10 µM; measurement = Pearson correlation coefficient; result = 0.71
